Published values collected from several papers.
Each numbered part is a random draw from the data of one study; scales do not carry over between parts.

Series 1
Target: Interferon regulatory factor 7, full length, phosphomimetic (IRF7, Homo sapiens, UniProt Q92985, residues 1-503, S101K/S471D/S472D/S475D/S476D/S477D/S483D/S484D/S487D)
Method: protein-binding microarray
Form: double-stranded DNA, one strand shown
Medium: in vitro
Tested at: 250 nM
Notes: 60-bp whole probe
With: salmon DNA 0.4 mg/ml
Reference: random background probes
Reading: higher = stronger binding
All sequences stand within: GCCTAGCAC … GTCTTGATTCGCTTGACGCTGCTG
Target sequence (chain): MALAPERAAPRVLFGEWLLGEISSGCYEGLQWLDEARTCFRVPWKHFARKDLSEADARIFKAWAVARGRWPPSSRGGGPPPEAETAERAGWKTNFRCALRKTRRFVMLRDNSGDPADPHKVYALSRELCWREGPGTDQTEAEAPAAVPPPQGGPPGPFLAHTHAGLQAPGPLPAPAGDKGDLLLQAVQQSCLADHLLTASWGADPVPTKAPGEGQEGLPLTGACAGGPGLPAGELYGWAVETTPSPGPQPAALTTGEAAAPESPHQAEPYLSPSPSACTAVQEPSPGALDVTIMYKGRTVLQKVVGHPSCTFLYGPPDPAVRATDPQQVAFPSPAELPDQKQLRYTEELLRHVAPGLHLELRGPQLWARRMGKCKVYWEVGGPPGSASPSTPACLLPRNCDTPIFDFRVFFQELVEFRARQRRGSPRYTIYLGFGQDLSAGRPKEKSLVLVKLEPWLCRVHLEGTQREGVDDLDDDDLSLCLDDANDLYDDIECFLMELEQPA
`GACGGACTGGGTATCGGGTCGTGCTAG` gave a log fluorescence of 0.0445 z-score.
For `TCAGTTTTGCTAAGTCAAACTGTGCTA`, the log fluorescence was 1.01 z-score.
For `TTAGGGATCGACTTTCGGTTAGTGCTA`, the log fluorescence was 1.98 z-score.
With `TTAGGTCTCGCTTTCGGTTAGTGCTAG` the log fluorescence was 6.49 z-score.
The log fluorescence of `GACGAAGTGAGACTGGAGACGTGCTAG` is reported as -0.214 z-score.
`ATGGCTCTCTGGACTGTGTGTGTGCTA` gave a log fluorescence of -0.933 z-score.
The log fluorescence of `ATATCTTATCCTATCAGTTTGTGCTAG` is reported as 1.03 z-score.
For `GACGAACTGGGGTTTCGAAACGTGCTA`, the log fluorescence was 3.59 z-score.
`GTCGGACTGCTTTTCCTGACGTGCTAG` gave a log fluorescence of 0.613 z-score.

Series 2
Target: Histone acetyltransferase KAT6A, winged helix 2, GST fusion (KAT6A, Homo sapiens, UniProt Q92794, residues 85-181)
Method: protein binding microarray
Form: double-stranded DNA, one strand shown
Medium: in vitro
Tested at: not given
Notes: 8-mer, flanks averaged, mean of 2 arrays, mostly near background
Reference: not given
Reading: higher = stronger binding
Construct (chain): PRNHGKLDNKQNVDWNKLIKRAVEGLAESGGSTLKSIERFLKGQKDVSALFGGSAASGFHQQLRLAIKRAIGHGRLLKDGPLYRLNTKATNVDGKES
`GACCCCCA` gave an E-score of -0.17.
`CGCCGCCA` has an E-score of 0.0595.
The E-score of `TCATTCGA` is reported as -0.0623.
With `CCCTTAAG` the E-score was 0.0759.
`CACCTAGC` gave an E-score of -0.125.
`GTACCTTA` has an E-score of -0.149.
With `AATCCGTG` the E-score was -0.0459.
The E-score of `AATAACCG` is reported as -0.0626.

Series 3
Target: RNA binding protein fox-1 homolog 2, RRM domain, GST-SBP tag (RBFOX2, Homo sapiens, UniProt O43251-10, residues 100-194)
Method: RNA Bind-n-Seq
Form: RNA
Medium: in vitro
Tested at: 365 nM
Notes: natural RNA segment, single round, ends assumed
Reference: no-protein control
Reading: higher = stronger binding
Construct (chain): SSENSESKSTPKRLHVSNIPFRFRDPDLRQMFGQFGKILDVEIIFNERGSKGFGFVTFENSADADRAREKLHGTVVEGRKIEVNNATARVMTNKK
`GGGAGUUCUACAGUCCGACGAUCUGUGUGAGCACUGGAGUGUCCAGAGCCCUGCACACUCGGGGUGGGGGGCGGGGUACUCUCCCUGUCGCUAGGUGAGCACUGGCUUUGUCCAACAUCAGGGAACACAAGGCUGGAAUUCUCGGGUGCCAA`: “RBNS enrichment (R)” 0.195.
Under “RBNS enrichment (R)”, `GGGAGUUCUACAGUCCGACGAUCACCUAGAGUGCAUCCUGCUCAUUGUCAGUGUAGCCCCUCGCCCCUAUAUUCAUCCAGGAUACUUGGAAGUGCUAAAAUAGGAAGGGAUUCGGCUUUCAACUUUGCUACCAUGGAAUUCUCGGGUGCCAA` is recorded as 0.403.
`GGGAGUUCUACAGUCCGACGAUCUGACAGGCUCCUUAGUCCUCGACACCAAGCUAGUAUGCGUUACCCACCUCCCAUCUGCUGCCCGGAAGGCACUGAGCAGACAGCUUCAGUAUUCAGCGAGCACGCGAACCUGGAAUUCUCGGGUGCCAA` — result for “RBNS enrichment (R)”: 1.06.
Under “RBNS enrichment (R)”, `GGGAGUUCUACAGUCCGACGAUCUUGUCUCUCUCAUUUCAGAAACGGACUUUCUCAUCAUGCUUUCCUAUGGUGGGUAUGAGGGGCCAGCUGAUACCAACCAACUGGCCUGUAUCUAUCUAUCUGGAUUUGACUGGAAUUCUCGGGUGCCAA` is recorded as 0.222.
For `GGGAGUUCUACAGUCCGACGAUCCACCCUUCGGACCCGCUGCCCCUGUGGGAGCACCCUGCUUCAGGAAGCCUCCCUCCCUCCCUCUGCCUCCCUUCCCCAGGACACCAAGAGCGCCCUCUCCUGAGCCCUGGUGGAAUUCUCGGGUGCCAA`, “RBNS enrichment (R)” read 0.533.
For `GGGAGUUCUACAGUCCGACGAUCAUGCUGUACUAUUCCACCCUUUGGACGCCUCAUCCAGGACGCAGAGGACUCUAGGUUUAACAUUUUGUACAAAAUGGAACCUGUUAAUCAUAUUAAAGCACAUAUGUAUAUGGAAUUCUCGGGUGCCAA`, “RBNS enrichment (R)” read 0.656.
`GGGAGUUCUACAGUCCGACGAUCUGCCUCUCUGUGCUUGGCUCUGGCAGAAGGCACCCAGUGACAUCAGGCAUCAGGCCCAGUGACAGUGCACCAAAGACACAGAGCCUGGAAGGGCUGUCGGGACAUACUUUUGGAAUUCUCGGGUGCCAA`: “RBNS enrichment (R)” 0.341.
`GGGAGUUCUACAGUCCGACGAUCACUCUAAUCAAAGGACUCUUUCUAAACCAUAUUUAUAGCUUUCUUAACCUACACAUAGUCUAUACAUAGAUGCAUAUUUUACCCCCAGCUGGCUAGAGAUUUAUUUGUUGUGGAAUUCUCGGGUGCCAA`: “RBNS enrichment (R)” 1.23.
`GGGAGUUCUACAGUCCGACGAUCUAUUUUUAGUAGAAACGGGAUUUCACCUUGUUAGGCUGGUCUCGAACUCCUGACCUCAGGUGAUCCACCCACCUUGGCCUCCCAAAGUGCUGGGAUUACAGGUGUGAGCCUGGAAUUCUCGGGUGCCAA`: “RBNS enrichment (R)” 0.228.

Further values, each from its own experiment
With `PhoQ, residues 284 288 289 292 302 303 SLSVQF` the fold induction was 3.89 (PhoP, residues 12 14 15 18 19 QYCSL (Escherichia coli, UniProt P23836); Sort-seq, refers to: YFP reporter; E. coli; PhoQ-PhoP variant library, with: 10 µM Mg2+; reference: high Mg2+ state, higher = stronger signaling).

A few entries again (series 3):
For `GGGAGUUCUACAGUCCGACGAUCCACCCUUCGGACCCGCUGCCCCUGUGGGAGCACCCUGCUUCAGGAAGCCUCCCUCCCUCCCUCUGCCUCCCUUCCCCAGGACACCAAGAGCGCCCUCUCCUGAGCCCUGGUGGAAUUCUCGGGUGCCAA`, “RBNS enrichment (R)” read 0.533.
For `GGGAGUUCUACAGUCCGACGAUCAUGCUGUACUAUUCCACCCUUUGGACGCCUCAUCCAGGACGCAGAGGACUCUAGGUUUAACAUUUUGUACAAAAUGGAACCUGUUAAUCAUAUUAAAGCACAUAUGUAUAUGGAAUUCUCGGGUGCCAA`, “RBNS enrichment (R)” read 0.656.
`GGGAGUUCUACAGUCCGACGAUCUGCCUCUCUGUGCUUGGCUCUGGCAGAAGGCACCCAGUGACAUCAGGCAUCAGGCCCAGUGACAGUGCACCAAAGACACAGAGCCUGGAAGGGCUGUCGGGACAUACUUUUGGAAUUCUCGGGUGCCAA`: “RBNS enrichment (R)” 0.341.
`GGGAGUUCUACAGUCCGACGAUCACUCUAAUCAAAGGACUCUUUCUAAACCAUAUUUAUAGCUUUCUUAACCUACACAUAGUCUAUACAUAGAUGCAUAUUUUACCCCCAGCUGGCUAGAGAUUUAUUUGUUGUGGAAUUCUCGGGUGCCAA`: “RBNS enrichment (R)” 1.23.
